# Experimental data gathered from unrelated publications.
# Numbered parts are unrelated; each lists some results of a single study. Positions count from the first letter of the parent shown.

# Set 1 — technique: universal PBM; molecule type: double-stranded DNA, one strand shown; medium: in vitro; tested at: not given; reading: higher = stronger binding
# Target: Sal-like protein 4, full length isoform B (SALL4, Homo sapiens, UniProt Q9UJQ4-2, residues 1-616)
# Setting: 8-mer, flanks averaged, mean of replicates
Sequence,E-score
GGAGTAGA,-0.0445
CAATGGCG,-0.275
GGGCGCCA,-0.269
CAATCATC,0.0557
AACAAGCC,-0.0552

# Set 2 — target: CCND1, cyclin fold, Cln2 fusion (human); technique: yeast growth competition, sequencing; medium: yeast; setting: weak parent motif; baseline: not given; reading: higher = stronger binding
# Starting sequence: CDC25A docking peptide (human); PPHRRRLLFACSP
Change,normalised enrichment score
A10M,0.612
P2M,0.453
R6H,0.0974
R5Q,0.3

# Set 3 — technique: protein binding microarray; molecule type: double-stranded DNA, one strand shown; medium: in vitro; tested at: not given; baseline: not given; reading: higher = stronger binding
# Target: Histone acetyltransferase KAT6A, winged helix 2, GST fusion (KAT6A, Homo sapiens, UniProt Q92794, residues 85-181)
# Setting: 8-mer, flanks averaged, mean of 2 arrays, mostly near background
# Residues (chain): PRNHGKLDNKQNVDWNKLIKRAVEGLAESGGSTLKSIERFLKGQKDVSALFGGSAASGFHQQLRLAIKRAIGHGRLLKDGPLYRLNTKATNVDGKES
Sequence,E-score
AGAAAAGA,-0.177
AGCTTAAC,-0.067
ACCCGGCC,0.155
ACTTCATG,-0.0985
AGGTTCGA,0.0203
AATCAGTC,-0.0103
CCAAAGCG,0.0181
ATAAGCGC,-0.0677

# Mixed results
Substance,target,test,system,setting,how to read,quantity,value
"PhoQ, residues 284 288 289 292 302 303 AGCYAI","PhoP, residues 12 14 15 18 19 NHFIF (Escherichia coli, UniProt P23836)","Sort-seq, item: YFP reporter",E. coli,"PhoQ-PhoP variant library, added: 10 µM Mg2+","baseline: high Mg2+ state, higher = stronger signaling",fold induction,12.2
